Measurements of several laboratories.
Each numbered part is a random draw from the data of one study; scales do not carry over between parts. Positions count from the first letter of the parent shown.

Set 1 — method: RNA Bind-n-Seq; form: RNA; matrix: in vitro; concentration: 365 nM; reference: no-protein control; reading: higher = stronger binding
Target: RNA binding protein fox-1 homolog 2, RRM domain, GST-SBP tag (RBFOX2, Homo sapiens, UniProt O43251-10, residues 100-194)
Notes: natural RNA segment, single round, ends assumed
All sequences stand within: GGGAGUUCUACAGUCCGACGAUC … UGGAAUUCUCGGGUGCCAA
Target sequence (chain): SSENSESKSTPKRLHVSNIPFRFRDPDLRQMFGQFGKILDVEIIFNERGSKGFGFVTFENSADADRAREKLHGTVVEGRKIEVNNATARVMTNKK
| Strand | RBNS enrichment (R) |
| --- | --- |
| UAUAGGGGACUUGAGGGAGUGCCACGUGCUGAACUUGUGAUAUCCUUUGCUAAACCAGAGGAUAAAAAAGGAGAGUAUGAGUACAUAAAAAUCUAUCUUUGAUACAUUUU | 0.31 |
| GAUAUAGCAGUGGCAUCCAAGAGCUCAGCACAGUGUCUGGCAUCUGGUGUGCAUGGGCACAUGUACUGACUAUGACUGUCGGUGUGUGUUGUUAUACAGUCCAGGAACUG | 7.82 |
| UCAGAAAUUUGAUUUAUUCUUGGACUGUACUCUUCGCAUGGACUGGGAAGUUCUUUUAAAUCAUACUAUUAAGACGACCAUCUCUUCUGUUAAAUUGCAGUACGUGUUAU | 2.74 |
| AUCUGUGCCAAACAUAGGCGCUCCUAGUCUGGUCAGUGCCAAGAGGCUACCAGAACAUGGGGCAGGUGGCUGGUGUUGGUGUCCCAGCCUAAGAGCCACCUGCUGCAGUU | 0.275 |
| UGUGCCUUAAGAGACUACAGAGUCAAAGCUCAUUUUUAAAGGAGUAGGACAAAGUUGUCACAGGUUUUUGUUGUUGUUUUUAUUGCCCCCAAAAUUACAUGUUAAUUUCC | 0.666 |
| GGGUUCGAUUCCUUUGUGUUUAGAGAGACCAGGUUCAGACAAUGGUAUAUAUUUUUGUUAUCAGGUGCAUGUCUGUCUGAUUUCCUUUUCUUCUCGUUGGGACUAUGUUU | 19.8 |
| UCAUGAAAAAAAUAAUGUAAAUCACAGACUUUUGCCAAAGCUCUUAUUUUUUUUCCUAAAUCUCUCCAGAAAAAAAAUGCAAGUGACUAAAUUCAAUUAUUGACUAAUUU | 0.989 |
| CAGUAGUUUUGUUUUAACAUGGUCUUUUUCAACUUUGUUUCCUGUUUAACUACAGAUGACUUCUGUUGUAGACUCACAAGUUUAACUGUUGUAUUAUAACAGUAUUACAU | 0.308 |

Set 2 — method: RNAcompete; form: RNA; matrix: in vitro; concentration: 20 nM; notes: 7-mer, probes averaged, single round; reference: mean of 7-mers; reading: higher = stronger binding
Target: PABPC1L2, full length, GST fusion (mouse, UniProt A0ABA7IW68)
Residues (chain): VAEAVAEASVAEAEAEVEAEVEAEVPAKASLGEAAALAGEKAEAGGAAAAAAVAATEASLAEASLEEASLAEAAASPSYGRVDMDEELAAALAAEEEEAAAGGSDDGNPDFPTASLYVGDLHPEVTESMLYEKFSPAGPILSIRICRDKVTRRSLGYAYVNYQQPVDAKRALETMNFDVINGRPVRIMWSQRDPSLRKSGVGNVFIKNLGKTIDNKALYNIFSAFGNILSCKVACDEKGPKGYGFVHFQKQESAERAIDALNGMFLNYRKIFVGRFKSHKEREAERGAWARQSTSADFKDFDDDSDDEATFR
| Strand | 7-mer Z-score |
| --- | --- |
| UACUCUC | -0.389 |
| UAACCGG | -0.144 |
| CAAGAUU | 0.124 |
| UGGGGAA | 0.445 |
| CUCAUAC | -0.278 |
| AGUGCAA | 0.131 |
| AUACAUC | -0.0373 |
| AGUUACA | -0.206 |
| ACGUUCA | -0.22 |
| UGAUUUU | -0.182 |
| UGCUCUU | -0.298 |
| CUUUGAC | -0.229 |
| GCGUGCG | -0.161 |
| CCGUUUC | -0.507 |
| UAGGCCC | -0.132 |
| AACAUCG | 0.298 |
| UCUUACG | -0.271 |
| UGGAUUG | -0.0536 |
| UCAUUCU | -0.436 |
| AAGCUUC | -0.19 |
| CUCUAGU | -0.414 |
| AUUAAGC | -0.0844 |
| CCCUGUC | -0.289 |
| UCCCUCA | -0.342 |

Set 3 — method: RNA Bind-n-Seq; form: RNA; matrix: in vitro; concentration: 200 nM; notes: whole 134-nt RNA, ends assumed; with: 150 mM LiCl; reference: input library; reading: higher = stronger binding; all molecules: 7-deaza-guanosine replaces G
Target: Ras GTPase-activating protein-binding protein 1, full length (G3BP1, Homo sapiens, UniProt Q13283)
UniProt Q13283, sequence (whole entry, looked up): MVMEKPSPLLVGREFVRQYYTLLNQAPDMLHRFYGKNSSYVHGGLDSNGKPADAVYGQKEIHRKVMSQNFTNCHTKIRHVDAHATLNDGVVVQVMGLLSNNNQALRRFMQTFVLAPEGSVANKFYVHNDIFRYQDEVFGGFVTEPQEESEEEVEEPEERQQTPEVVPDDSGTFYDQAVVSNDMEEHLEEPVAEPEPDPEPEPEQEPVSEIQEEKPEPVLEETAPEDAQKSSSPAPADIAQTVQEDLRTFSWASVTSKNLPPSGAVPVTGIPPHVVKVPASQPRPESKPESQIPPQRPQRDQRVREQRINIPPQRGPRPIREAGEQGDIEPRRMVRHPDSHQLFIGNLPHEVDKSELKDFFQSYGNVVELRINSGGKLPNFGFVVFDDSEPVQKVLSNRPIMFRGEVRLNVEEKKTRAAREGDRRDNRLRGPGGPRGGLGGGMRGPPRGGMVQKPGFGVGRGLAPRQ
All sequences stand within: GGGAGUUCUACAGUCCGACGAUC … UGGAAUUCUCGGGUGUCAAGG
| Strand | log2 enrichment |
| --- | --- |
| AAGUCCUGUGCUACACAUCGUAUGUACCGAAUCGGGAAAGGGGAAAGGGAAAGGGGAAAGUAUUAUGUUACGCCGUUCGGAUCUGCACUU | 0.577 |
| AGUCCUGUGCUACACAUCGUAUGUACCGAAUCGGCCCCCGGGCCCCCGGGCCCCCGGAAAGUAUUAUGUUACGCCGUUCGGAUCUGCACU | -1.27 |
| CAAGUCCUGUGCUACACAUCGUAUGUACCGAAUCGGGGCCGGGGCCGGGCCGGGGAAAGUAUUAUGUUACGCCGUUCGGAUCUGCACUUC | 0.384 |
| UCCUGUGCUACACAUCGUAUGUACCGAAUCGGGAAAAAAAGGGAAAAAAAGGGUUUGGGAAAGUAUUAUGUUACGCCGUUCGGAUCUGCA | -1.72 |
| CUCAAGUCCUGUGCUACACAUCGUAUGUACCGAAUCGGGCCGGCCGGGGCCGGAAAGUAUUAUGUUACGCCGUUCGGAUCUGCACUUCCA | 1.21 |
| CCUCAAGUCCUGUGCUACACAUCGUAUGUACCGAAUCGGGGAGGGAGGGAGGGAAAGUAUUAUGUUACGCCGUUCGGAUCUGCACUUCCA | -0.449 |
| CCUCAAGUCCUGUGCUACACAUCGUAUGUACCGAAUCGGGUGGGUGGGUGGGGAAAGUAUUAUGUUACGCCGUUCGGAUCUGCACUUCCA | -0.934 |
| AAGUCCUGUGCUACACAUCGUAUGUACCGAAUCGGGUGGGAAAGGGUUUUUUUGGGAAAGUAUUAUGUUACGCCGUUCGGAUCUGCACUU | -0.821 |

Set 4 — target: CCND2, cyclin fold, Cln2 fusion (human); method: yeast growth competition, sequencing; matrix: yeast; notes: strong parent motif; reference: not given; reading: higher = stronger binding
Starting sequence: INSM1 docking peptide (human); PKAIRKLHFEDEV; partner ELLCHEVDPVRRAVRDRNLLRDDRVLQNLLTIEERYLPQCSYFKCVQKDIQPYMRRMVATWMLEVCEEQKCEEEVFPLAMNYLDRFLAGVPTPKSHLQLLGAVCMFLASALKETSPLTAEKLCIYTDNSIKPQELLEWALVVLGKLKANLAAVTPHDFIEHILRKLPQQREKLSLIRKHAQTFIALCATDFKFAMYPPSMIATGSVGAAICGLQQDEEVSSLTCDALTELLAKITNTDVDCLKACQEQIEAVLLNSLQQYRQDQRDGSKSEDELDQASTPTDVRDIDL
| Variant | normalised enrichment score |
| --- | --- |
| D11T | 0.995 |
| K2H | 1.7 |
| E12N | 2.03 |
| A3V | 0.957 |
| E10I | 0.812 |
| F9M | 0.469 |
| A3C | 1.9 |
| D11S | 1.64 |
| I4H | 0.0664 |
| E10Q | 1.34 |
| A3R | 0.385 |
| E10D | 1.96 |
| D11G | 1.49 |
| A3T | 1.08 |
| H8L | 2.88 |
| A3M | 0.453 |
| E10A | 1.25 |
| K2E | 0.88 |
| L7K | 0.162 |
| I4Q | 1.64 |
| H8C | 3.44 |
| R5C | 0.755 |
| F9K | -0.406 |
| K2W | 0.969 |
| F9Y | 0.307 |
